# Published values collected from several papers.
# A part holds a random share of what one study measured.

# Block 1
# Target: Interferon regulatory factor 7, full length, phosphomimetic (IRF7, Homo sapiens, UniProt Q92985, residues 1-503, S101K/S471D/S472D/S475D/S476D/S477D/S483D/S484D/S487D)
# Method: protein-binding microarray
# Molecule type: double-stranded DNA, one strand shown
# Matrix: in vitro
# Concentration: 250 nM
# Notes: 60-bp whole probe
# Added: salmon DNA 0.4 mg/ml
# Baseline: random background probes
# Reading: higher = stronger binding
# Constant ends, left off below: GCCTAGCAC … GTCTTGATTCGCTTGACGCTGCTG
# Construct (chain): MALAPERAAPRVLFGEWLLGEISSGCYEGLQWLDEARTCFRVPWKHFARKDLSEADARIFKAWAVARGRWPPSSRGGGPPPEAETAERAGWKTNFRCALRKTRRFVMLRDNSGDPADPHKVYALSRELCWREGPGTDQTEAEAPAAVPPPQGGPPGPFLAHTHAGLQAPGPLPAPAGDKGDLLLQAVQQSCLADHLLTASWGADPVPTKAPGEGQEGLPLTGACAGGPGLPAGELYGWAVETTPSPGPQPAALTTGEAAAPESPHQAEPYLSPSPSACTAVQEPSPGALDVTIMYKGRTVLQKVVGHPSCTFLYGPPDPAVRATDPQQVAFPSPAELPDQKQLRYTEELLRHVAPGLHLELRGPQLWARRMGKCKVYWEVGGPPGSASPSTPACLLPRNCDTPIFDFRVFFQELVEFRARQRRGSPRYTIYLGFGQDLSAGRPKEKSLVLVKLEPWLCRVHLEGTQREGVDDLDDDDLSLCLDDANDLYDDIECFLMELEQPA
Strand,log fluorescence
TTATGTATCGGACTGGGTTAGTGCTAG,0.309 z-score
TTAGAACTGGGTCTCGATTAGTGCTAG,0.922 z-score
TTAGATTTCGGGTATCGATTAGTGCTA,1.47 z-score
TCACTTCTGGTGCTCATCTGGTGCTAG,0.523 z-score
TTAGGTCACCTTATCCTTTAGTGCTAG,0.308 z-score
TTAGGTCTCGACTATCGGTTAGTGCTA,0.854 z-score
TCAGCTTCTTTTTTATTACTGTGCTAG,0.51 z-score
TTAGGTATCGGACTGGGTGAGTGCTAG,0.17 z-score
TATTATATATTTATGTATACGTGCTAG,0.823 z-score
GACGATCTCAGTCTTGAGACGTGCTAG,-0.413 z-score
GACGGTGCCGGTTTCGGGACGTGCTAG,2.17 z-score
CAGAATCCCCTTCTACTCTCGTGCTAG,0.311 z-score
GACGGGCTGGGACTGGGGACGTGCTAG,-0.73 z-score
GACGATTTCAGTCTCGAGTCGTGCTAG,1.78 z-score
TTAGCTATCCTACTGCTTTAGTGCTAG,-0.213 z-score
TGTTCATTTTCAAAACTGTTGTGCTAG,2.06 z-score
TCACCTTGCATGTTTTTGACTGTGCTA,-0.0713 z-score
TCAATTTTCTGAATGCTACTGTGCTAG,1.06 z-score
TCATTTTTTAATTGAGAACTGTGCTAG,0.519 z-score
GTCATTCTCAACCCTGGTGCTGTGCTA,0.35 z-score
CCAGCTCTTTCGTTACTTCCTGTGCTA,0.286 z-score
TTAGGTTTCGACACTGGCTTAGTGCTA,3.55 z-score
TCAAGTTTAATATCTAAGACTGTGCTA,0.0224 z-score
GACGGACTGGGTATCGCGACGTGCTAG,-0.545 z-score
GACGTACTGAGACTGGAGACGTGCTAG,-0.014 z-score

# Block 2
# Target: RNA binding protein fox-1 homolog 2, RRM domain, GST-SBP tag (RBFOX2, Homo sapiens, UniProt O43251-10, residues 100-194)
# Method: RNA Bind-n-Seq
# Molecule type: RNA
# Matrix: in vitro
# Concentration: 365 nM
# Notes: natural RNA segment, single round, ends assumed
# Baseline: no-protein control
# Reading: higher = stronger binding
# Constant ends, left off below: GGGAGUUCUACAGUCCGACGAUC … UGGAAUUCUCGGGUGCCAA
# Target sequence (chain): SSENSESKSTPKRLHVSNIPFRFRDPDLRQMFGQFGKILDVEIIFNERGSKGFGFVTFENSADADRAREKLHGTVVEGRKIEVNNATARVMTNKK
Strand,RBNS enrichment (R)
UUUUUGAGUCAGAGUAGGGCUGGAGAACACUUCAUAUUUGAUGCCUUUUAGCUAAAGACAUUCAUUACUAUAGCACUUCCCAGGCAUUGAAGAGGCAGAGUGAUUUAGAG,0.669
GAAUGAGCACUGGCUGAGGCUGUGGCCUUUGACCUUUAUGUUUCCUCCCGUCCUCUAAGACUAGCUCAUAAGCAUCCUGAGUCAAAGACCUCUGCCUGCCUUGUGAGUAC,0.439
CAAGAUCUGCUCUCUGUCUAUGGUAUUACACAGGGAAAGCUGUGACUGCAGGAUCAGUCUCAUUCUUCUACUAGGUGCAUGGACUCCCUUCCCACUGACUUACACUCGUC,0.574
AAGAGAAAUUUUAUCAUCUUUUGAAAGGAAGUCAUGACUGAAGCAAUAAACCUUUUCACUGAUUCAAAACACUGGCUUCUGUGACUGUUUUCUGGGCAGGGCUGGGUCUC,0.52
UGGAACCUGAGGGGCCAGCAGGCCUCUCUGAAGGCCUCCAUGGAGCAAACGGAGCCACCUCGGGAAAGAGUUUAAUGGAAUAUUUUUGUACCCGAUGUUUACAGAUGCUG,0.353
AUGUUGGUCCUUUGUUUACCUCCUAAACCACAGCUGUUUGUGUUUCACAUAUGUUGUGAAUUUUCCUUGGUUCUUUUUAAAGGAAUGAUAAUAAAGUUACUUGCUUUAGG,0.219
GCAGUGAGGGAAGCAGCCCCGGGCCUGCUUGCUUCCUGUCCCCGAAAUGUUCGUUUCUUCUGAAGUAAAUAUACAUAUAUAAAUAAAUGUAUAAAUACUGCUUUGUAUCU,0.43
AAACCAAGCUCAGGGCCCCAACCCUAGAAGGGCCCAAAUGAGAGAAUGGUACUUAGGGAUGGAAAACGGGCCUGGCUAGAGCUUCGGGUGUGUGUGUCUGUCUGUGUGUA,1.49
GUAUCUUGUUCAGUGUCGUCAAGGUUGGGCUUCACGUCUCACUGCAGUGGAGCGAGCGGACAUUCUGAUCGCUGCAUUUCUUUAGAUCUCGGAGCUAAGUGUAUAUAUGA,0.597
GCAAUCCCUAGCAGAACAUUGUUUCUGAGGAGGCAUAUGUGAGAUUGAUUUGUUGGUUCAUGCCAAGUGUGUUCCACAGGUUGACUUUGAAUGUGGACCUCUGAGCAUCC,0.304
AAAGUCGGUUAUUGGUGUCUAUUUUGUGUAUUUUCUUUUGUUAAUAAAGAUGCAAUUGAGAAUAUUUAGCCAUGAGUUGUUUGAAGUACCCCUGUUUGGCAGAGAAAUGG,0.551
UGGACCUGGAAUAUCCCUUAUUGCCUAUAAUGGAAUAUGUGACACUGUGGGUGAAAUGUUCUACACACCACACACUAGGCCAUUUUCAGAUCAGCAGUCACCCAUCGCUU,0.557

# Block 3
# Target: Histone acetyltransferase KAT6A, both winged helices, GST fusion (KAT6A, Homo sapiens, UniProt Q92794, residues 1-181)
# Method: protein binding microarray
# Molecule type: double-stranded DNA, one strand shown
# Matrix: in vitro
# Concentration: not given
# Notes: 8-mer, flanks averaged, mean of 2 arrays, mostly near background
# Baseline: not given
# Reading: higher = stronger binding
# Construct (chain): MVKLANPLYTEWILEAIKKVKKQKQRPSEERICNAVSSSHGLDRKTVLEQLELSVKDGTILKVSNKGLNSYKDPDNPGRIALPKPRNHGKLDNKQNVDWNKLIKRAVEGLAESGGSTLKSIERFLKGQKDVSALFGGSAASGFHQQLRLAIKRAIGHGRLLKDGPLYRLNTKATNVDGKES
Strand,E-score
GGGGATTA,-0.138
AAAAAAGT,-0.065
CAAATCGC,0.0027
GCTCCGGA,0.119
CAGAGTAA,-0.0144
AAAAATAT,-0.138
CTTCATCA,-0.0938
AAAAGTGA,-0.0838
AAAACATT,-0.0443
AGGAACTA,-0.208
GTCTTCCA,-0.208
TAATTAAA,-0.0659
CATAAACC,-0.0789
CCAGGACC,-0.0789
CTGAGGAC,-0.0518
ATTGAGTG,-0.0975
GAGCCCAA,-0.195
AATATTAA,0.0913
ATTGCACC,-0.159
AATTGTGC,-0.0331
AAGAGCAG,-0.0979
ATACTTCC,-0.0493
AGTGTGGA,-0.179

# Block 4
# Target: Sal-like protein 4, full length isoform B (SALL4, Homo sapiens, UniProt Q9UJQ4-2, residues 1-616)
# Method: universal PBM
# Molecule type: double-stranded DNA, one strand shown
# Matrix: in vitro
# Concentration: not given
# Notes: 8-mer, flanks averaged, mean of replicates
# Reading: higher = stronger binding
# Construct (chain): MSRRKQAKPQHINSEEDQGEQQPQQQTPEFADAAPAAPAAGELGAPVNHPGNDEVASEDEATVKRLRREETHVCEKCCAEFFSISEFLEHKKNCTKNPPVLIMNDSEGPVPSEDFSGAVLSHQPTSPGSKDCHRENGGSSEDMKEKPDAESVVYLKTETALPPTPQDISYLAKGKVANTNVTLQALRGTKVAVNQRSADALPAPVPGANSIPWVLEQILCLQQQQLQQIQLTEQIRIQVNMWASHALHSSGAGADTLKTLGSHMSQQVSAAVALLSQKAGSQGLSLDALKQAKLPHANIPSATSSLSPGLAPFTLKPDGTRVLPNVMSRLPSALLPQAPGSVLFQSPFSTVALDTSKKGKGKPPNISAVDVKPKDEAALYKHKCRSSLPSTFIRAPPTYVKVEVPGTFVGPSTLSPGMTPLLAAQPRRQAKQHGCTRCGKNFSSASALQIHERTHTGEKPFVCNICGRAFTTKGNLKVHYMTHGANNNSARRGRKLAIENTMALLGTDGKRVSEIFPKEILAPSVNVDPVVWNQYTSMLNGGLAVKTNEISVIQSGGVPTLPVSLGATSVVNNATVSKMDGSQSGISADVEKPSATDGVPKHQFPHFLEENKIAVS
Strand,E-score
ATGCTGAA,0.0782
AACGGTGT,-0.0554
ACGGAGAG,-0.137
AATTGCAT,0.252
GCTGATGA,0.0294
AGCTGGTC,-0.094
CACGGGGC,-0.338
CAAGCGCC,-0.231
GCGCAGAC,-0.162
ACTGTGCG,-0.176
AGATAGTG,0.0357
CTTGCTTC,0.0132
GTTTTCAA,0.214
GAGCAGGA,-0.0846
CAGGAAGC,0.055
AACGTATC,0.00064
ATAAACTA,0.362
AAGGCATG,0.0469
CTATGTGC,0.094
CAACGGGG,-0.25
CGAATGCA,0.135
AAAGACGC,-0.0662
ATGTCCCG,-0.0938
ATTATCCC,0.177
GAGCGGAA,-0.0523
